# Measurements pooled from the literature.
# Protocols differ between the studies behind these lines. pIC50: −log10 of the molar value.
# Target: Prostaglandin G/H synthase 2 (PTGS2, Homo sapiens, UniProt P35354)
# Sequence of UniProt P35354 (whole entry, looked up): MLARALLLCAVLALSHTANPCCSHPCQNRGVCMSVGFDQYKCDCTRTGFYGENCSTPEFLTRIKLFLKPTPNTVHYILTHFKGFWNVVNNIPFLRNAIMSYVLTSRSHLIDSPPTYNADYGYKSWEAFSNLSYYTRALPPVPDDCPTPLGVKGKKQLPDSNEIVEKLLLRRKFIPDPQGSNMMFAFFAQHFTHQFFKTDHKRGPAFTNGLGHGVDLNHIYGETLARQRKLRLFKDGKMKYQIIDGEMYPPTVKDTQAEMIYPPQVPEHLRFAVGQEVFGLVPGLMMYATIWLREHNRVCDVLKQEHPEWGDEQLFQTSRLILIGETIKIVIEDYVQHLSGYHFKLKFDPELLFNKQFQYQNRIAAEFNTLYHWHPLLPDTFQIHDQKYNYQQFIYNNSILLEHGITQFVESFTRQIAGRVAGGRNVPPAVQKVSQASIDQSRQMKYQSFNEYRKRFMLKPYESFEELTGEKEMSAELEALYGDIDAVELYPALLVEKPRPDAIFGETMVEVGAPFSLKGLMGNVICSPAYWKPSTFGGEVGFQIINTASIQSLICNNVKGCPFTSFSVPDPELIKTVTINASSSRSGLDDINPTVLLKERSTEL
# Mode: inhibitor
SMILES,assay,pIC50
Brc1ccc(NCc2cn(-c3ccccc3)nc2-c2ccc(OCc3ccccc3)cc2)cc1,"enzyme activity, absorbance",5.02
Fc1ccc(Nc2c(Cl)cccc2Cl)c(Cc2nnn[nH]2)c1,"enzyme activity, fluorescence",4.32
COc1cccc(/N=c2\oc3ccccc3cc2-c2ccccc2)c1,enzyme activity,8.06
COc1cccc(NCc2cn(-c3ccccc3)nc2-c2ccc(OCc3ccccc3)cc2)c1,"enzyme activity, absorbance",5.33
FC(F)(F)Oc1ccc(/N=c2\oc3ccccc3cc2-c2ccccc2)cc1,enzyme activity,8.02
NS(=O)(=O)c1ccc(-n2cc(CNc3ccc(Cl)cc3)c(-c3ccc(OCc4ccccc4)cc3)n2)cc1,"enzyme activity, absorbance",5.52
COc1cc(C2OC(c3ccc(O)c(OC)c3)C(C)C2C)ccc1O (centres unmarked),"enzyme activity, fluorescence",3.80
NS(=O)(=O)Cc1ccccc1Nc1c(Cl)cccc1Cl,"enzyme activity, fluorescence",< 4.00
Clc1ccc(/N=c2\oc3ccccc3cc2-c2ccccc2)cc1,enzyme activity,8.07
N#C/C=C1/C=CC(O)CC1OC1OC(CO)C(O)C(O)C1O (centres unmarked),"enzyme activity, ELISA, item: PGE2",< 4.15
Clc1ccc(NCc2cn(-c3ccccc3)nc2-c2ccc(OCc3ccccc3)cc2)cc1,"enzyme activity, absorbance",5.37
O=C(OCC1=C[C@@H](O)[C@H](O)[C@@H](OC(=O)c2ccccc2)[C@@H]1O)c1ccccc1,"enzyme activity, fluorescence",3.76
Fc1ccccc1NCc1cn(-c2ccccc2)nc1-c1ccc(OCc2ccccc2)cc1,"enzyme activity, absorbance",5.02
FC(F)(F)Oc1cccc(/N=c2\oc3ccccc3cc2-c2ccccc2)c1,enzyme activity,7.95
NS(=O)(=O)c1ccc(-n2cc(CNc3ccccc3Cl)c(-c3ccc(OCc4ccccc4)cc3)n2)cc1,"enzyme activity, absorbance",5.60
C(=C\c1ccccc1)/N=c1\oc2ccccc2cc1-c1ccccc1,enzyme activity,7.74
O=C(c1ccncc1)N1N=C2/C(=C/c3ccc(Br)cc3)CCCC2C1c1ccc(Br)cc1 (centres unmarked),enzyme activity,6.99
Fc1cc(Cl)c(Nc2ccccc2Cc2nnn[nH]2)c(Cl)c1,"enzyme activity, fluorescence",< 4.00
CN(C(=O)c1ccn2ncc(-c3ccc(C(N)=O)cc3)c2c1)c1ccc(C#N)cn1,cell-free assay,< 4.52
COc1cc2c(=O)oc3c(OC)c(O)cc4c(=O)oc(c1O)c2c34,"enzyme activity, fluorescence",4.46
FC(F)(F)c1ccc(/N=c2\oc3ccccc3cc2-c2ccccc2)cc1,enzyme activity,8.06
COc1cc2c(=O)oc3c(OC)c(OC)cc4c(=O)oc(c1OC)c2c34,"enzyme activity, fluorescence",4.78
O=C1CCN(Cc2ccccc2)CC1C(C[N+](=O)[O-])c1ccccc1 (centres unmarked),enzyme activity,5.24
